{"data": "Literature values, collected from citations in different studies", "note": "Compare with care: the assays were run in different laboratories. Numbers after ± are the reported error.", "UniProt Q9H3Y6, sequence (whole entry, looked up)": "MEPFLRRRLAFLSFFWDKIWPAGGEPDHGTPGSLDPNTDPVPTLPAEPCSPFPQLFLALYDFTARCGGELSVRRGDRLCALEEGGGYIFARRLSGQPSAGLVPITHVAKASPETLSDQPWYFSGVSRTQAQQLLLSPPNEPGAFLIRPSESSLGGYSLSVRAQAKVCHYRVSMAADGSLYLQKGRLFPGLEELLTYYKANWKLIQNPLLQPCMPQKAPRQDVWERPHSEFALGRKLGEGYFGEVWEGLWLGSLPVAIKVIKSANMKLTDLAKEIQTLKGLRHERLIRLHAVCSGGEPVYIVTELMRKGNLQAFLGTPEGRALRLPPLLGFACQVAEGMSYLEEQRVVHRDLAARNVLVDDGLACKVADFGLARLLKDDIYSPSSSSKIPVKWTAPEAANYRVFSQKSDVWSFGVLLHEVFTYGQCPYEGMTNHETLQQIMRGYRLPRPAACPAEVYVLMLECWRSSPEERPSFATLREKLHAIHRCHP"}
{"SMILES": "CC/C(=C(\\c1ccc(O)cc1)c1ccc(OCCN(C)C)cc1)c1ccccc1", "tested on": "estrogen receptor alpha, human", "assay": "reporter gene, inhibitor", "test system": "human breast cancer cells", "measurement": "IC50", "value": "< 0.27 µM"}
{"SMILES": "Cc1c[nH]c(/C=C2\\C(=O)Nc3ccccc32)c1CCC(=O)O", "tested on": "insulin receptor", "assay": "inhibitor", "measurement": "IC50", "value": "no inhibition"}
{"SMILES": "CC1(C)S[C@@H]2[C@H](NC(=O)[C@H](N)c3ccccc3)C(=O)N2[C@H]1C(=O)O", "tested on": "Escherichia coli", "test system": "clinical isolate RKI-No_521/16", "measurement": "MIC", "value": "> 16 mg/L"}
{"SMILES": "Nc1cc(C(F)(F)F)c(-c2nc(N3CCOCC3)nc(N3CCOCC3)n2)cn1", "tested on": "Tyrosine-protein kinase Srms (SRMS, Homo sapiens, UniProt Q9H3Y6)", "assay": "enzyme activity", "setting": "10 µM", "how to read": "reference: untreated", "measurement": "remaining activity", "value": "94%"}
{"SMILES": "COc1ccc(Cl)cc1C(=O)NCCc1ccc(S(=O)(=O)NO)cc1", "tested on": "NLRP3 inflammasome", "assay": "inhibitor", "test system": "J774.A1", "setting": "together with: LPS + ATP", "measurement": "IC50", "value": "8.45 µM"}
{"SMILES": "COCCNc1nc2ccc(C#CC3(O)CCCCC3)cc2n1-c1ccnc(N)n1", "tested on": "PAK6", "assay": "inhibitor", "measurement": "IC50", "value": "0.036 µM"}
{"SMILES": "Nc1nc2cc(-c3ccc4ncc(C(=O)N5CCOCC5)n4c3)ccc2o1", "tested on": "PI3Kα", "assay": "enzyme activity", "measurement": "IC50", "value": "0.021 µM"}
{"SMILES": "COc1cc2c(Nc3ccc(Cl)c(Cl)c3F)ncnc2cc1OC[C@@H]1C[C@@H]2CN(C)C[C@@H]2C1", "tested on": "VEGFR2", "measurement": "IC50", "value": "0.0015 µM"}
{"SMILES": "CN1CCN(c2ccc3nc(-c4c(N)c5c(F)cccc5[nH]c4=O)[nH]c3c2)CC1", "tested on": "c-KIT", "assay": "inhibitor", "measurement": "IC50", "value": "0.002 µM"}
{"SMILES": "CCC(=O)NS(=O)(=O)c1ccc(-c2c(-c3ccccc3)noc2C)cc1", "tested on": "NR4A1 (Nur77)", "assay": "inverse agonist, cellular", "measurement": "IC50", "value": "23.7 ± 0.1 µM"}
{"SMILES": "CNC(C)C1CCC(N)C(OC2C(N)CC(N)C(OC3OCC(C)(O)C(NC)C3O)C2O)O1 (centres unmarked)", "tested on": "Escherichia coli", "test system": "clinical isolate RKI-No_590/16", "measurement": "MIC", "value": "> 8 mg/L"}
{"SMILES": "CCN(CC)C(=S)SSC(=S)N(CC)CC", "tested on": "NLRP3 inflammasome", "test system": "THP-1", "setting": "together with: LPS and nigericin", "measurement": "IC50", "value": "0.41 µM"}
{"SMILES": "CC(=O)N1CCc2c(c(N3CCCc4cc(-c5cnn(C)c5)c(C(F)F)cc43)nn2C2CCOCC2)C1", "tested on": "PI3Kα", "measurement": "IC50", "value": "0.034 µM"}
{"SMILES": "CC(=O)c1c(-c2ccncc2)[nH]c(-c2ccncc2)c1C", "tested on": "CSNK1G1", "assay": "kinase activity, inhibitor", "measurement": "IC50", "value": "0.717 µM"}
{"SMILES": "COc1ccc(-c2ccc3ncc4c(c3c2)n(-c2ccc(N3CCNCC3)c(C(F)(F)F)c2)c(=O)n4C)cn1", "tested on": "PI3K gamma", "measurement": "IC50", "value": "0.038 µM"}
{"SMILES": "Cn1ncc2c(N)ncnc21", "tested on": "CSNK1G1", "assay": "kinase activity, inhibitor", "measurement": "IC50", "value": "0.716 µM"}
{"SMILES": "CCOCC1(COCC)CCC(c2n[nH]cc2CN(C)CCNC)CC1", "tested on": "PRMT8", "measurement": "IC50", "value": "0.0039 µM"}
{"SMILES": "CNC(=O)c1c(C)oc2cc(Oc3ncnc4cc(OC)c(OC)cc34)ccc12", "tested on": "P-glycoprotein", "assay": "transport, inhibitor", "setting": "in vitro", "measurement": "IC50", "value": "4.6 µM"}
{"SMILES": "CN(CCN)Cc1csc(-c2ccc(C(=N)N)nc2)n1", "tested on": "PRMT8", "measurement": "IC50", "value": "5.71 µM"}
{"SMILES": "CNS(=O)(=O)Nc1nccc(Cc2c(C)c3ccc(Oc4ncccn4)cc3oc2=O)c1F", "tested on": "RAF-1", "assay": "kinase activity, inhibitor", "measurement": "IC50", "value": "0.056 µM"}
{"SMILES": "CNCCN(C)Cc1c[nH]nc1C1CCC2(CC1)CC(C)(C)CO2 (centres unmarked)", "tested on": "PRMT6", "measurement": "IC50", "value": "0.0057 µM"}
{"SMILES": "Nn1cnc2scc(-c3ccc(Cc4ccccc4)cc3)c2c1=O", "tested on": "β-arrestin 1", "measurement": "IC50", "value": "19.1 µM"}
{"SMILES": "Oc1ccc(/C=C/c2cc(O)cc(O)c2)cc1", "tested on": "lipoxygenase", "measurement": "IC50", "value": "2.7 µM"}
{"SMILES": "CC(=O)N1c2ccc(-c3ccc(C(=O)O)cc3)cc2[C@H](Nc2ccc(Cl)cc2)C[C@@H]1C", "tested on": "BRD3", "assay": "inhibitor", "measurement": "IC50", "value": "0.031 µM"}
{"SMILES": "CC[C@]1(O)C[C@@H]2CN(CCc3c([nH]c4ccccc34)[C@@](C(=O)OC)(c3cc4c(cc3OC)N(C)[C@H]3[C@@](O)(C(=O)OC)[C@H](OC(C)=O)[C@]5(CC)C=CCN6CC[C@]43[C@@H]65)C2)C1", "tested on": "nicotinic acetylcholine receptor", "assay": "cell-free", "measurement": "IC50", "value": "8.9 µM"}
{"SMILES": "CCN(CC)CCCCNc1ncc2cc(-c3cc(OC)cc(OC)c3)c(NC(=O)NC(C)(C)C)nc2n1", "tested on": "PDGFRβ", "assay": "inhibitor", "measurement": "IC50", "value": "17.6 µM"}
{"SMILES": "Clc1ccc(C2(c3ccc(-c4cn[nH]c4)cc3)CCNCC2)cc1", "tested on": "PKA", "assay": "inhibitor", "measurement": "IC50", "value": "0.02 µM"}
{"SMILES": "COc1cc(N2CCC3(CCN(C)CC3)CC2)ccc1Nc1ncc(Cl)c(Nc2ccccc2P(C)(C)=O)n1", "tested on": "ALK G1202R", "measurement": "IC50", "value": "0.096 µM"}
{"SMILES": "Nc1ncnc2c1ncn2[C@@H]1O[C@H](COP(=O)(O)CP(=O)(O)OP(=O)(O)O)[C@@H](O)[C@H]1O", "tested on": "P2X receptor", "assay": "radioligand binding", "measurement": "IC50", "value": "0.082 µM"}
{"SMILES": "Cc1cc(Cc2cc(C)cc(C(C)(C)C)c2O)c(O)c(C(C)(C)C)c1", "tested on": "SERCA, rat skeletal muscle", "assay": "inhibitor", "measurement": "IC50", "value": "0.7 µM"}
{"SMILES": "N#CC[C@H](C1CCCC1)n1cc(-c2ncnc3[nH]ccc23)cn1", "tested on": "JAK", "assay": "STAT3 phosphorylation", "test system": "human adults", "setting": "together with: thrombopoietin", "measurement": "IC50", "value": "0.281 µM"}
{"SMILES": "COc1ccc(-c2noc(CC(=O)O)c2-c2ccc(OC)cc2)cc1", "tested on": "NR4A1 (Nur77)", "assay": "inverse agonist, cellular", "measurement": "IC50", "value": "30 ± 1 µM"}
{"SMILES": "CCn1c(-c2nonc2N)nc2c(C#CC(C)(C)O)ncc(OC[C@H]3CCCNC3)c21", "tested on": "AKT", "assay": "enzyme activity", "measurement": "IC50", "value": "0.002 µM"}
{"SMILES": "C#Cc1cccc(Nc2ncnc3cc4c(cc23)OCCOCCOCCO4)c1", "tested on": "EGFR", "measurement": "IC50", "value": "0.005 µM"}
{"SMILES": "COc1cccc(-c2cc(F)ccc2[C@H]2Cc3nc(N)nc(C)c3C(=O)N2)n1", "tested on": "Hsp90α", "assay": "inhibitor", "measurement": "IC50", "value": "0.0006 µM"}
{"note": "For quick reference, copied from above:"}
{"SMILES": "COc1ccc(-c2noc(CC(=O)O)c2-c2ccc(OC)cc2)cc1", "tested on": "NR4A1 (Nur77)", "assay": "inverse agonist, cellular", "measurement": "IC50", "value": "30 ± 1 µM"}
{"SMILES": "CCOCC1(COCC)CCC(c2n[nH]cc2CN(C)CCNC)CC1", "tested on": "PRMT8", "measurement": "IC50", "value": "0.0039 µM"}
{"SMILES": "Clc1ccc(C2(c3ccc(-c4cn[nH]c4)cc3)CCNCC2)cc1", "tested on": "PKA", "assay": "inhibitor", "measurement": "IC50", "value": "0.02 µM"}
{"SMILES": "CC(=O)N1c2ccc(-c3ccc(C(=O)O)cc3)cc2[C@H](Nc2ccc(Cl)cc2)C[C@@H]1C", "tested on": "BRD3", "assay": "inhibitor", "measurement": "IC50", "value": "0.031 µM"}
